# Assay results gathered from unrelated publications.
# Each line is one published result; not all experiments were run side by side. ± marks the error that the study gave.
# T1: thiM TPP riboswitch transcriptional intermediate mimic, 2-aminopurine at 62 (Escherichia coli); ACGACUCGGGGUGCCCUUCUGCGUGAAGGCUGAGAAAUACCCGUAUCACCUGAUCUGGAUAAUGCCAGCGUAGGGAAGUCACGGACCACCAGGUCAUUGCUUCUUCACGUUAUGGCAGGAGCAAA
# UniProt Q9HAW7, sequence (whole entry, looked up): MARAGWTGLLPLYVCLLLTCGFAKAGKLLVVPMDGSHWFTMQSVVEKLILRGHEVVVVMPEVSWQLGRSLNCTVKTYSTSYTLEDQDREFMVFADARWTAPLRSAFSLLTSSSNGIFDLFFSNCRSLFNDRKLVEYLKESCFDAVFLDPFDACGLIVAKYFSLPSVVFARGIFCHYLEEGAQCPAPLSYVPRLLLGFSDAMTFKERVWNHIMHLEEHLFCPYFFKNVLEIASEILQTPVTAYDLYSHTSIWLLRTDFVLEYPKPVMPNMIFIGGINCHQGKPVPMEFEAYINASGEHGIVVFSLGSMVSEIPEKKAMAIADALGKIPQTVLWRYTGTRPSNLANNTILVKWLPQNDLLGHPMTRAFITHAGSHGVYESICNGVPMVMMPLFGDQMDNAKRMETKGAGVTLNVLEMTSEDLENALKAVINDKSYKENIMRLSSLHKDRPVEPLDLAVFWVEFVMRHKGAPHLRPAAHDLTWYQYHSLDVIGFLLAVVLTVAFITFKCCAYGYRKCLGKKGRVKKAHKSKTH
# UniProt P39051, sequence (whole entry, looked up): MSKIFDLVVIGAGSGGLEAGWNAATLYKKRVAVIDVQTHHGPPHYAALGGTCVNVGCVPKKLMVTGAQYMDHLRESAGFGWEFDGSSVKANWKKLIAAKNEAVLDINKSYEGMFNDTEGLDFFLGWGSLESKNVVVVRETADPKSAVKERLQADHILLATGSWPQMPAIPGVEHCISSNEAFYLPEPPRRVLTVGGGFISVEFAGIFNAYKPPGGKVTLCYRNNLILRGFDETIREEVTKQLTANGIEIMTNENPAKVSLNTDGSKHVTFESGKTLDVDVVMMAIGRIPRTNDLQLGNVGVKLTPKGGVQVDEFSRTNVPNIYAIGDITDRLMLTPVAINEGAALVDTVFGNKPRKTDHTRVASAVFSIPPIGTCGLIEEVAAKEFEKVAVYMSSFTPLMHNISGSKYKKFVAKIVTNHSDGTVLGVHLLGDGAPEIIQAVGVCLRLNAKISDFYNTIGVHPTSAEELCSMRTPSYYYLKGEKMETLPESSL
# UniProt Q03431, sequence (whole entry, looked up): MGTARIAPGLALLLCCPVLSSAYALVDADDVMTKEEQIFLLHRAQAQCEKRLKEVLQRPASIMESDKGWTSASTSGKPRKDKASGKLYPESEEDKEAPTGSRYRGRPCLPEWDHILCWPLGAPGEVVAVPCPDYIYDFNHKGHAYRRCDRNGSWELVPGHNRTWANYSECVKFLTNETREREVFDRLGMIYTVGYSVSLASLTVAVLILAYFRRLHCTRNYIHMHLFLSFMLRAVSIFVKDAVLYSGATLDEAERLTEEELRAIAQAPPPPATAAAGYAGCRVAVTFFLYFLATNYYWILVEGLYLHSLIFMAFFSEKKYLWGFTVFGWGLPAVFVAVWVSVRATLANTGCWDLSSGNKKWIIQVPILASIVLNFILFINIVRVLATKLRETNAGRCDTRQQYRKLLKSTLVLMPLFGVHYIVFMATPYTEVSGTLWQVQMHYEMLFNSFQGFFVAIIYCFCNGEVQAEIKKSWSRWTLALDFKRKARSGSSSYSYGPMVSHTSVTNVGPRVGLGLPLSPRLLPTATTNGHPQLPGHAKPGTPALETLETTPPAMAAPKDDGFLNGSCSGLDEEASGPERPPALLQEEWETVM
# UniProt G5EFS4, sequence (whole entry, looked up): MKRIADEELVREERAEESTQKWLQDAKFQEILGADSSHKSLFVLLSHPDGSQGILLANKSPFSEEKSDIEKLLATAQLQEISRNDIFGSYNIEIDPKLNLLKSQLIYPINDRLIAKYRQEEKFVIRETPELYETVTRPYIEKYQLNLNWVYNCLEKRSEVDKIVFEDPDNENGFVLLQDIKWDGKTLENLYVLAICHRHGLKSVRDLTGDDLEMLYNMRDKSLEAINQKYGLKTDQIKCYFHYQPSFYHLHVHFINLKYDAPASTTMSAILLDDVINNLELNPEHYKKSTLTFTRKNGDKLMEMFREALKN
# UniProt P12004, sequence (whole entry, looked up): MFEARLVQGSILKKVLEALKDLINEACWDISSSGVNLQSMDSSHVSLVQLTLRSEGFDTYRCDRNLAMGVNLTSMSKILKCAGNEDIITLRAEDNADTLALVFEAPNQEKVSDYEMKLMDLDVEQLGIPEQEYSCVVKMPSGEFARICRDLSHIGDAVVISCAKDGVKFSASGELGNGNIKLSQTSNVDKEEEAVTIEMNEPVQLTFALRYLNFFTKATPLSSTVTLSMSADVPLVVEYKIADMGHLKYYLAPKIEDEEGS
# UniProt Q9QXD6, sequence (whole entry, unmodified, looked up): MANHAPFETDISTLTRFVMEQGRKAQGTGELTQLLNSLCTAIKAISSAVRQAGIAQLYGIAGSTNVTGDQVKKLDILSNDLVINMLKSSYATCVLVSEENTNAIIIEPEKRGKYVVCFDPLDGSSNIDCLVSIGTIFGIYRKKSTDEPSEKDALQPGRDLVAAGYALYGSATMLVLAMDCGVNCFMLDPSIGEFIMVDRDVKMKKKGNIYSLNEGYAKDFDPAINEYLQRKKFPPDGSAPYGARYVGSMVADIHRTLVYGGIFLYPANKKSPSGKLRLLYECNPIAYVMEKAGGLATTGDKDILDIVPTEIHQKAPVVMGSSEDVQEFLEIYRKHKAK
# UniProt Q9Y2J8, sequence (whole entry, looked up): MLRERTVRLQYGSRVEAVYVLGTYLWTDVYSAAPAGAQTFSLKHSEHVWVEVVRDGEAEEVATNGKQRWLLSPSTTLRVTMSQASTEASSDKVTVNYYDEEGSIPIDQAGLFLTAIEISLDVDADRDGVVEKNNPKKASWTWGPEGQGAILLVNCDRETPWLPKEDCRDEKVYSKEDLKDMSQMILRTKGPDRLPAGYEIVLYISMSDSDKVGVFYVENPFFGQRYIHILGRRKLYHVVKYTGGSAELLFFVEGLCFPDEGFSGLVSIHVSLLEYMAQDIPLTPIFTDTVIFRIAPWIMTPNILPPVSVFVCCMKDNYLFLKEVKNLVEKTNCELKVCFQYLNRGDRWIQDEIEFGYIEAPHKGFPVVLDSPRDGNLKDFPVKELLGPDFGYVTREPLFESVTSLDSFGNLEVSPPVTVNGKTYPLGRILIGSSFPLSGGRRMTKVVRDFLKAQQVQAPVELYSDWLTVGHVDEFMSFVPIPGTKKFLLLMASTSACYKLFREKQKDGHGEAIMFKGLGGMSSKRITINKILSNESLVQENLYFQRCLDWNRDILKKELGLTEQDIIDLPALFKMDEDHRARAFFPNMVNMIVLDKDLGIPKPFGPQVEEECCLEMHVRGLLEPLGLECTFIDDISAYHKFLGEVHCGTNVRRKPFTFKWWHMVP
Structure (SMILES),target,test,test system,setting,how to read,measurement,value
O=C(O)[C@H]1O[C@@H](O[C@H]2C=Cc3c(cc4ccc5cccc6c7ccccc7c3c4c56)[C@@H]2O)[C@H](O)[C@@H](O)[C@@H]1O,"UGT1A7 (Homo sapiens, UniProt Q9HAW7)","glucuronidation, substrate",UGT-expressing HEK293 homogenate,normalized to UGT expression,,kcat/Km,< 0.0167 M⁻¹ s⁻¹
CCOc1ccccc1-c1nnc2n1N=C(c1ccc(NC3CCCC3)cc1)CS2,"CXCR4 (Homo sapiens, UniProt P61073)","β-arrestin recruitment, agonist",U2OS,,,Emax,31%
N=C(CCl)NCCC[C@H](NC(=O)c1ccc(/N=N\c2ccccc2)cc1)c1nc2ccccc2[nH]1,"PADI2 (Homo sapiens, UniProt Q9Y2J8)","inhibitor, competitive ABPP",,,reference: other photoisomer over this photoisomer,IC50 fold difference,> 10 fold
Cc1ncc(C[n+]2csc(CCOP(=O)(O)OP(=O)(O)O)c2C)c(N)n1,"T1, thiM TPP riboswitch transcriptional intermediate mimic, 2-aminopurine at 62 (Escherichia coli)",2-aminopurine fluorescence,,"pH 7.5, 25 °C, KCl 100 mM, together with: TPP 3 µM",,binding,binds weakly
COC(=O)CN1C(C)=Nc2ccc(Br)cc2C1c1ccccc1 (centres unmarked),"TPR (Trypanosoma brucei brucei, UniProt P39051)",inhibitor,S427,,,ligand efficiency,0.31
Nc1ncnc2c1ncn2C1OC(COP(=O)(O)O)C(O)C1O (centres unmarked),"Fructose-1,6-bisphosphatase 1 (Mus musculus, UniProt Q9QXD6, G27P)","enzyme activity, inhibitor",liver homogenate,,reference: G27P mutant over wild type,IC50 ratio,> 400 fold
CSCC[C@H](NC(=O)[C@H](CO)NC(=O)[C@H](CC(N)=O)NC(=O)[C@H](CC(C)C)NC(=O)[C@H](CO)NC(=O)[C@H](CCCCN)NC(=O)CNC(=O)[C@H](CCCCN)NC(=O)[C@H](CC(=O)O)NC(=O)[C@H](Cc1c[nH]cn1)NC(=O)[C@H](CC(C)C)NC(=O)[C@H](CC(C)C)NC(=O)[C@H](CCC(N)=O)NC(=O)[C@H](Cc1c[nH]cn1)NC(=O)[C@H](CCC(=O)O)NC(=O)[C@H](CO)NC(=O)[C@@H](NC(=O)[C@H](C)N)C(C)C)C(=O)N[C@@H](CCC(=O)O)C(=O)N[C@@H](CCCNC(=N)N)C(=O)N[C@H](C(=O)N[C@@H](CCC(=O)O)C(=O)N[C@@H](Cc1c[nH]c2ccccc12)C(=O)N[C@@H](CC(C)C)C(=O)N[C@@H](CCCNC(=N)N)C(=O)N[C@@H](CCCCN)C(=O)N[C@@H](CCCCN)C(=O)N[C@@H](CC(C)C)C(=O)N[C@@H](CCC(N)=O)C(=O)N[C@@H](CC(=O)O)C(=O)N[C@H](C(=O)N[C@@H](Cc1c[nH]cn1)C(=O)N[C@@H](CC(N)=O)C(=O)N[C@@H](Cc1ccccc1)C(=O)N[C@@H](CCCCNC(=O)c1ccc2c(c1)C1(OC2=O)c2ccc(N(C)C)cc2Oc2cc(N(C)C)ccc21)C(N)=O)C(C)C)C(C)C,"PTH1R (Homo sapiens, UniProt Q03431)","binding, NanoBRET",HEK293 stably expressing receptor,"room temperature, 0.02% sodium azide, together with: 5 µM coelenterazine h",,kon,680000 ± 200000 M⁻¹ s⁻¹
BP(=O)(OP(=O)([O-])OC[C@H]1O[C@@H](n2c[n+](C)c3c(=O)[nH]c(N)nc32)[C@H](O)[C@@H]1O)OP(=O)([O-])OC[C@H]1O[C@@H](n2c[n+](C)c3c(=O)[nH]c(N)nc32)[C@H](O)[C@@H]1O,"m7GpppX diphosphatase (dcs-1, Caenorhabditis elegans, UniProt G5EFS4)","hydrolysis by DcpS, substrate, HPLC",,"15 µM, 10 min, pH 7.6, 20 °C, enzyme 200 nM",,cleavage,20%
CSCC[C@H](NC(=O)[C@H](CO)NC(=O)[C@@H](NC(=O)[C@H](CCC(N)=O)NC(C)=O)[C@@H](C)O)C(=O)N[C@H](C(=O)N[C@@H](CC(=O)O)C(=O)N[C@@H](Cc1ccccc1)C(=O)N[C@@H](Cc1ccc(O)cc1)C(=O)N[C@@H](Cc1c[nH]cn1)C(=O)N[C@@H](CO)C(N)=O)[C@@H](C)O,"PCNA (Homo sapiens, UniProt P12004)",isothermal titration calorimetry,,"concentration not given, pH 7.4, 25 °C, 100 mM NaCl, together with: p21 peptide",,binding stoichiometry,0.7 ± 0.004
O=C(O)C(CO)NCc1cc(Cl)c(OCc2cccc(-c3ccccc3)c2Br)cc1OCc1cccnc1 (centres unmarked),"Programmed cell death ligand 1 (Rattus norvegicus, UniProt D4AE25)",SPR,,,,dissociation rate constant (koff),0.00559 s⁻¹
CC(=O)NCCN(CC(=O)NCCN(CC(=O)NCCN(CC(=O)NCCC(N)=O)C(=O)[C@@H](N)Cc1ccccc1)C(=O)[C@@H](N)CCCNC(=N)N)C(=O)[C@@H](N)CCCNC(=N)N,HIV-1 TAR RNA,,,,,non-electrostatic TΔS°,-6.45 ± 0.287 kcal/mol

# Some of these lines once more:
Structure (SMILES),target,test,test system,setting,how to read,measurement,value
Cc1ncc(C[n+]2csc(CCOP(=O)(O)OP(=O)(O)O)c2C)c(N)n1,"T1, thiM TPP riboswitch transcriptional intermediate mimic, 2-aminopurine at 62 (Escherichia coli)",2-aminopurine fluorescence,,"pH 7.5, 25 °C, KCl 100 mM, together with: TPP 3 µM",,binding,binds weakly
BP(=O)(OP(=O)([O-])OC[C@H]1O[C@@H](n2c[n+](C)c3c(=O)[nH]c(N)nc32)[C@H](O)[C@@H]1O)OP(=O)([O-])OC[C@H]1O[C@@H](n2c[n+](C)c3c(=O)[nH]c(N)nc32)[C@H](O)[C@@H]1O,"m7GpppX diphosphatase (dcs-1, Caenorhabditis elegans, UniProt G5EFS4)","hydrolysis by DcpS, substrate, HPLC",,"15 µM, 10 min, pH 7.6, 20 °C, enzyme 200 nM",,cleavage,20%
